Experimental data pooled from the literature.
A part holds a random share of what one study measured.

Block 1
Target: PABPC1L2, full length, GST fusion (mouse, UniProt A0ABA7IW68)
Technique: RNAcompete
Form: RNA
Medium: in vitro
Tested at: 20 nM
Setting: 7-mer, probes averaged, single round
Baseline: mean of 7-mers
Reading: higher = stronger binding
Target sequence (chain): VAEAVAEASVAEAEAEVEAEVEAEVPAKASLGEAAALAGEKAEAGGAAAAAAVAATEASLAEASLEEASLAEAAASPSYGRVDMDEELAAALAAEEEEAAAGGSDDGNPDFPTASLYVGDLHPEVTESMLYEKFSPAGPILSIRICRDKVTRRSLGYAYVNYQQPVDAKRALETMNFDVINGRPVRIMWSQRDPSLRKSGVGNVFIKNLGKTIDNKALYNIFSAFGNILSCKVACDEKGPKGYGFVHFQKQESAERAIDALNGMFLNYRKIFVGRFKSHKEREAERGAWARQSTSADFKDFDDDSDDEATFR
Strand	7-mer Z-score
GUGAAAA	3.59
CGGCUUA	-0.17
AGAAACG	0.481
UGGCACA	-0.0355
GCGCGUU	-0.228
AUGGUGC	0.153
AUUUAAC	-0.0718
CCGAGAC	-0.184
GUAUUGU	-0.278
CAUAUUG	-0.0772
ACCGGAU	-0.112
UACGAAA	0.695
CGACGGU	-0.173
CACUUUC	-0.249
GUCAGAU	-0.0772
CUCACCA	-0.24
GACACAG	0.117
CUUUUCU	-0.371
AACACCC	0.0768
AGGGUGG	0.347
CAACAUA	0.175
UUCUAGU	-0.28
UUACCGC	-0.324
GUUGCGU	-0.331
UCGUAGU	-0.38

Block 2
Target: Histone acetyltransferase KAT6A, both winged helices, GST fusion (KAT6A, Homo sapiens, UniProt Q92794, residues 1-181)
Technique: protein binding microarray
Form: double-stranded DNA, one strand shown
Medium: in vitro
Tested at: not given
Setting: 8-mer, flanks averaged, mean of 2 arrays, mostly near background
Baseline: not given
Reading: higher = stronger binding
Residues (chain): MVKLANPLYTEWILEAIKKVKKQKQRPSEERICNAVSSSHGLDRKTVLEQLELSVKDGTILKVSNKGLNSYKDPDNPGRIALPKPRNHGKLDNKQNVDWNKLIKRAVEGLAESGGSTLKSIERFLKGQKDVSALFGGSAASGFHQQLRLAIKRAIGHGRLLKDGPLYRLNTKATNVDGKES
Strand	E-score
GGCATAGA	0.0469
AGAGCCGC	0.228
GAAAAGTC	-0.142
AATCAGAC	-0.06
GCGCGTAC	0.388
AAGAATTG	0.00178
ACGATTGG	-0.0383
AACTTCAC	-0.0141
CGTAATAG	-0.0212
ATGAAGGA	-0.2
CAGCAACA	-0.17
AGGAGGAT	-0.14
ATAAACCC	-0.0279
ACCGCTTG	0.162
AGAGCACC	-0.0297
CTACAGAA	-0.132
CCGCGGAC	0.316
ACATGGGA	-0.0698
CGTCCTGA	-0.137

Block 3
Target: Ras GTPase-activating protein-binding protein 1, C-terminal RGG region (G3BP1, Homo sapiens, UniProt Q13283)
Sequence of UniProt Q13283 (whole entry, looked up): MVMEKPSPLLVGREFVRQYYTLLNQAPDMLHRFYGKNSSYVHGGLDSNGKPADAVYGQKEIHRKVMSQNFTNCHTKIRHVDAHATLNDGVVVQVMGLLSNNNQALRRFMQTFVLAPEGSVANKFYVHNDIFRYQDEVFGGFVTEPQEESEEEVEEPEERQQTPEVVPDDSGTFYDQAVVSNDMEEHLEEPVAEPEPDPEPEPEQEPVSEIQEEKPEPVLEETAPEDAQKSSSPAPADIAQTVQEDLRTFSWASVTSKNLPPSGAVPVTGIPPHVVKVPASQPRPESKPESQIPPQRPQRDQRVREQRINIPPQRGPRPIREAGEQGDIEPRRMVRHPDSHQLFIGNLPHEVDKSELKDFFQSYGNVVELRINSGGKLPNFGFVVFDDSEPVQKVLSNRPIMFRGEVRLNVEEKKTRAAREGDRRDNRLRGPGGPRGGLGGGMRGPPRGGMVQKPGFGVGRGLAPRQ
Technique: RNA Bind-n-Seq
Form: RNA
Medium: in vitro
Tested at: 1 µM
Setting: whole 134-nt RNA, ends assumed
With: 150 mM KCl
Baseline: input library
Reading: higher = stronger binding
Shared flanks, not repeated: GGGAGUUCUACAGUCCGACGAUC … UGGAAUUCUCGGGUGUCAAGG
Strand	log2 enrichment
UCCUGUGCUACACAUCGUAUGUACCGAAUCAAAUUUUUAAAUUUUUAAACCCCCCCAAAAAAGUAUUAUGUUACGCCGUUCGGAUCUGCA	-0.575
ACCAUGCAGGUGGGCAUCUUUGGGAAGUGGGGCAAGGGGGGGAUAGGGAGGGGGGUAACACUUUGGGAACAGUUGGUCCCAGGUCGUUUC	2.27
CUGUGCUACACAUCGUAUGUACCGAAUCGGGGUUUUUUUGGGGUUUUUGGGGUUUUUGGGGAAAGUAUUAUGUUACGCCGUUCGGAUCUG	-0.155
AGUCCUGUGCUACACAUCGUAUGUACCGAAUCGGGCCCCGGGGCCCCGGGGCCCCGGGAAAGUAUUAUGUUACGCCGUUCGGAUCUGCAC	-0.318
CAAGUCCUGUGCUACACAUCGUAUGUACCGAAUCGGGCCCGGGGCCCGGGCCCGGGAAAGUAUUAUGUUACGCCGUUCGGAUCUGCACUU	-2.25
UCCUCAAGUCCUGUGCUACACAUCGUAUGUACCGAAUCGGGAGGAGGGAGGGAAAGUAUUAUGUUACGCCGUUCGGAUCUGCACUUCCAG	1.21
UCCUGUGCUACACAUCGUAUGUACCGAAUCGGUUUUUUGGGUUUUUUGGUUUUUUGGGGAAAGUAUUAUGUUACGCCGUUCGGAUCUGCA	-1.29
UCCUGUGCUACACAUCGUAUGUACCGAAUCGGGGUUUUUUGGGUUUUUUGGUUUUUUGGAAAGUAUUAUGUUACGCCGUUCGGAUCUGCA	-0.801
GCAGGAAGUAAAAACAAAUGGAAAUGCUUCGGAUAGUGGCAGGGGUGGGGCUUGCUAAGGAAAGGGUGGGAUGGGAGUGGGUAAAGAGUU	1.66

Block 4
Target: RNA binding protein fox-1 homolog 2, RRM domain, GST-SBP tag (RBFOX2, Homo sapiens, UniProt O43251-10, residues 100-194)
Technique: RNA Bind-n-Seq
Form: RNA
Medium: in vitro
Tested at: 365 nM
Setting: natural RNA segment, single round, ends assumed
Baseline: no-protein control
Reading: higher = stronger binding
Shared flanks, not repeated: GGGAGUUCUACAGUCCGACGAUC … UGGAAUUCUCGGGUGCCAA
Residues (chain): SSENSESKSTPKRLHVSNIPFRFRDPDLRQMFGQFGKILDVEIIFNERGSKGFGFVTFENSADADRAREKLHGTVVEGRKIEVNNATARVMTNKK
Strand	RBNS enrichment (R)
AGGCUGAGGCAGGAGAAUCACUUGAAUCCAGGAGGCGAAGGUUGCAGUGAGCUGAGAUUGUGCUGCUGCACUCCAGCCUGGGAGACAGAGCGAGACUCUGUCUUAAAAAA	1
GAGAAAAUAAUUUUUCUCAUUUAAUUAUAGAAAUUACCUUCAAACAGAUUUUGUGUUCUUUGGCCCUUCAAAUACUGGUGUUACAUUGUUGCUGCAGAUAAAUGAUGAUU	0.707
GUGGAACAUCUGGGAAUUUGAGAAGUAUCUGCAAAGUAUAGAAAAAUCAACAGAUUUGUGGACCCUGGUAAAGAAGUUCAGCCAAGUCUCAGUGAAAAAUGUUAAGAAGU	0.346
CCUCCUGAAAACUUGGACUCUGCAUGGUGCCACCACCAACCAUUGAGUAGUCUGAGGUGCUAACAUCAGGCCCUCCUGCUCACUCCUUGGCUGACCUGCCCCCCUACUUG	0.65
AACAUGACCUCACUCUUCCUCAAAGGAGCCCCUGGUCUUCCCUGUGUGACUCAGUUCUUUCCAUCUGUUUGUCCCGCUGCAAGCCUCUUUCUGCGCUGACUGUGACAUUG	0.3
UCCAUUCCUUACUAUUCACUCACUCAUCUGUCUCCCUUCAUUUCACUGUUAGACUCUUUUCCACUUUCAACAAACUUGCAUGUCAGUUUCUGUCAUGUUUAUUUAUUGGA	0.952
AACUCUGCGCUCUAGUACUGCUGUUAAGAUACACAACUUGUUUCUUAGUUCAUAUAAUCUCGGGAUACACACACACACACACAUAUAUAUACACACACAUACGUAUACAC	0.873
GGCUGUACCCUGCAAUGCCAUAGGGGUGGAGCUGCCCAAGACCAUGGGAACCCACCUCCUGCAUCAGUGUGACCUGGAUGUGAGACAUGGAGUCAAAGGAGACCAUUUUG	0.439

Block 5
Target: Centromere-binding protein 1, full length, His-tagged (CBF1, Saccharomyces cerevisiae, UniProt P17106, residues 1-351)
Sequence of UniProt P17106 (whole entry, looked up): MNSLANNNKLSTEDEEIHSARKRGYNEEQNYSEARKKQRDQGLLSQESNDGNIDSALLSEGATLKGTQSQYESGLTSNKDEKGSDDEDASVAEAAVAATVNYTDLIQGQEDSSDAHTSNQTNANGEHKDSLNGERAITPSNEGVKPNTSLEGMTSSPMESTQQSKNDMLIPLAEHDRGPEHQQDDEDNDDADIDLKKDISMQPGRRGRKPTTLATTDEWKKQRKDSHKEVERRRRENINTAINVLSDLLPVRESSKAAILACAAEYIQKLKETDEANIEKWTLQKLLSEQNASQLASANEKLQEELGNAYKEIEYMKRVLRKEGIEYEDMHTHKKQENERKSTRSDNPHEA
Technique: competition protein-binding microarray
Form: double-stranded DNA, one strand shown
Medium: in vitro
Tested at: 2 µM
Setting: whole 60-bp probe, lowest competitor level
With: Pho4 competitor, 0.05 µM
Reading: higher = stronger binding
Shared flanks, not repeated: … GTCTTGATTCGCTTGACGCTGCTG
Strand	fluorescence intensity [a.u.]
CTTTCCCGATCTTGCGATGTGGGTGTAGCACATTTG	84.6
AAGAAGAGGCAGATTACCGTGATGGTATAGAGCCCA	62.1
TGCAGGTAAGTGACTCACATGCTTTGAAAAGTTCCT	201
AAATTACTAAGTTTTCACGTGGTCTACCCCGTATGA	1460
CGTCCTAGCGATTTCCACGTGTTTTCCATGAGGAAG	811
TGCGCAACAACTTGTCACGCCACTTTATGTCTAGAA	320
ATTACGAGTTTTTCATCCGTGATGGCGATGATTTGG	69.7
ACTGTTATTTTGATGTACATGACAGTACGTTATTCT	93.2
GTCAGAGTCGTTGTTCTCGTGCTTTTCCGTAGCCTC	100
CGGGGTTAAGTTTGATTAGTGGGTGGCTTGCAGCAG	76.4
AAAGCGGTAATTTGCTCCGTGGGTGCAGATATCTAT	82.3
GAAGGAGTGAGGGACCCCGTGGGTACCGAACCCCGA	79.2
CTTCTGTAAATTTGGACAGTGGGTGGACGCGCCCCG	71.4
GAGGTTCGGTTTTGTCATGTGTGCTTTTATACGGCA	250
AATCACCAATGGCAAAGCGTGCAAAATCAACATTTG	91.1
AGCCCGGGGACTTGCCGCGTGGCACCTTGGGGCGCT	52.7
AGTGCCACCTTAAAGCACGCAGTTACTGTTTACGCT	69
CGTATTTGTCACCATCACGTGCTTTAAAATCTTCAG	7830
TTTACTAGTAATTTGCACGTGATGGGGCGAGATGGT	3190

For quick reference, copied from above (block 3):
Strand	log2 enrichment
CAAGUCCUGUGCUACACAUCGUAUGUACCGAAUCGGGCCCGGGGCCCGGGCCCGGGAAAGUAUUAUGUUACGCCGUUCGGAUCUGCACUU	-2.25
UCCUCAAGUCCUGUGCUACACAUCGUAUGUACCGAAUCGGGAGGAGGGAGGGAAAGUAUUAUGUUACGCCGUUCGGAUCUGCACUUCCAG	1.21
UCCUGUGCUACACAUCGUAUGUACCGAAUCGGUUUUUUGGGUUUUUUGGUUUUUUGGGGAAAGUAUUAUGUUACGCCGUUCGGAUCUGCA	-1.29
UCCUGUGCUACACAUCGUAUGUACCGAAUCGGGGUUUUUUGGGUUUUUUGGUUUUUUGGAAAGUAUUAUGUUACGCCGUUCGGAUCUGCA	-0.801
GCAGGAAGUAAAAACAAAUGGAAAUGCUUCGGAUAGUGGCAGGGGUGGGGCUUGCUAAGGAAAGGGUGGGAUGGGAGUGGGUAAAGAGUU	1.66
